Results collected from several papers.
Parts stem from different laboratories: compare values within a part only. Positions count from the first letter of the parent shown.

Block 1 — method: protein-binding microarray; molecule type: double-stranded DNA, one strand shown; sample: in vitro; tested at: 0.8 µM; setting: whole 60-bp probe, no competitor; direction: higher = stronger binding; all sequences stand within: … GTCTTGATTCGCTTGACGCTGCTG
Target: Centromere-binding protein 1, full length, N-terminal tag (CBF1, Saccharomyces cerevisiae, UniProt P17106, residues 1-351)
UniProt P17106, sequence (whole entry, looked up): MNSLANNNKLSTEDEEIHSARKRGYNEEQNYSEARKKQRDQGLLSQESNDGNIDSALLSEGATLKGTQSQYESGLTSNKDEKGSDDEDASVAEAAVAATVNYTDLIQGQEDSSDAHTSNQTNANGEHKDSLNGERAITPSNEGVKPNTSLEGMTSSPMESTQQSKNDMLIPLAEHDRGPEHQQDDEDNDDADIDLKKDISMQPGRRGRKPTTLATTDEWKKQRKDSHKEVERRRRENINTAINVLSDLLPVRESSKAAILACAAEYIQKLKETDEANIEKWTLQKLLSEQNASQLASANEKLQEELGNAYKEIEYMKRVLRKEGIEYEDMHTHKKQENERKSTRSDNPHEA
Oligonucleotide	fluorescence intensity [a.u.]
CTACCAATTTGAAGACATGTGGCAACCCGTGTTTTC	792
CCTAACTACTATATTCTGATGCCATAGCTTCGTACA	523
GAAAGTGAAAACGGAGTGGTGATGAAGATGGGGTAG	505
CTAGACTGAACACACCACGATAAAACGTATGTTTTC	526
GAAACAAAACTATTTAAGGTGACTTCTCCGTATTAG	502
CCTAACTACTATATGCACGTCAAATAGCTTCGTACA	574
CTAATGACACGATAGCATGTGCTTTTCGACGGCTTC	679
TGTACGAAGCTATTGCACGTGAATATAGTAGTTAGG	4130

Block 2 — target: inorganic phosphate, free oxyanion; method: microfluidic competitive inhibition; sample: in vitro, cell-free expressed; tested at: not given; direction: lower = stronger binding
Setting: derived from inhibition constants, unchanged parent 615000 nM
Starting sequence: PafA, mature enzyme, eGFP fusion (Elizabethkingia meningoseptica, UniProt Q9KJX5); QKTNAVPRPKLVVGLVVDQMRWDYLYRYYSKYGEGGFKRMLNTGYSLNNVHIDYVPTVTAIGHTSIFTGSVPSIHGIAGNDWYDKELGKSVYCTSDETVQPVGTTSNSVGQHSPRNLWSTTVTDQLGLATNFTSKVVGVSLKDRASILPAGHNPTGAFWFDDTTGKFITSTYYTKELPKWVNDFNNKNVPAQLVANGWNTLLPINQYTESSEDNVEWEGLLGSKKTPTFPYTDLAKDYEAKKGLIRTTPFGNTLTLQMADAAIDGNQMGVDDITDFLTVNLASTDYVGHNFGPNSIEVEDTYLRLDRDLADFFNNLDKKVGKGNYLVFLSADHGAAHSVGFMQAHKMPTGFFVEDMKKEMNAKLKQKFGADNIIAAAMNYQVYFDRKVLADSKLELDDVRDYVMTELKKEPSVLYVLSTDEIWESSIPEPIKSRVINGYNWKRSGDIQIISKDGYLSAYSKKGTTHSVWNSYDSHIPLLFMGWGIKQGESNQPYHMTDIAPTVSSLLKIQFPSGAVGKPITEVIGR
Change	phosphate dissociation constant [µM]
Y439V	599
W217G	175
P72G	361
E410V	769
A390G	600
I520G	354

Block 3 — target: CCNF, cyclin fold, Cln2 fusion (human); method: yeast growth competition, sequencing; sample: yeast; setting: strong parent motif; relative to: not given; direction: higher = stronger binding; starting sequence: viral docking peptide; TSVRRALFTGGSD
Change	normalised enrichment score
S2I	7.31
R5L	0.379
G10A	8.39
V3W	3.22
A6W	1.98

Block 4 — read-out: binding; method: phage display NGS; molecule type: peptide; relative to: input library
Target: UDP-N-acetylglucosamine--peptide N-acetylglucosaminyltransferase 110 kDa subunit (OGT, Homo sapiens, UniProt O15294)
Construct (O15294 1-1046): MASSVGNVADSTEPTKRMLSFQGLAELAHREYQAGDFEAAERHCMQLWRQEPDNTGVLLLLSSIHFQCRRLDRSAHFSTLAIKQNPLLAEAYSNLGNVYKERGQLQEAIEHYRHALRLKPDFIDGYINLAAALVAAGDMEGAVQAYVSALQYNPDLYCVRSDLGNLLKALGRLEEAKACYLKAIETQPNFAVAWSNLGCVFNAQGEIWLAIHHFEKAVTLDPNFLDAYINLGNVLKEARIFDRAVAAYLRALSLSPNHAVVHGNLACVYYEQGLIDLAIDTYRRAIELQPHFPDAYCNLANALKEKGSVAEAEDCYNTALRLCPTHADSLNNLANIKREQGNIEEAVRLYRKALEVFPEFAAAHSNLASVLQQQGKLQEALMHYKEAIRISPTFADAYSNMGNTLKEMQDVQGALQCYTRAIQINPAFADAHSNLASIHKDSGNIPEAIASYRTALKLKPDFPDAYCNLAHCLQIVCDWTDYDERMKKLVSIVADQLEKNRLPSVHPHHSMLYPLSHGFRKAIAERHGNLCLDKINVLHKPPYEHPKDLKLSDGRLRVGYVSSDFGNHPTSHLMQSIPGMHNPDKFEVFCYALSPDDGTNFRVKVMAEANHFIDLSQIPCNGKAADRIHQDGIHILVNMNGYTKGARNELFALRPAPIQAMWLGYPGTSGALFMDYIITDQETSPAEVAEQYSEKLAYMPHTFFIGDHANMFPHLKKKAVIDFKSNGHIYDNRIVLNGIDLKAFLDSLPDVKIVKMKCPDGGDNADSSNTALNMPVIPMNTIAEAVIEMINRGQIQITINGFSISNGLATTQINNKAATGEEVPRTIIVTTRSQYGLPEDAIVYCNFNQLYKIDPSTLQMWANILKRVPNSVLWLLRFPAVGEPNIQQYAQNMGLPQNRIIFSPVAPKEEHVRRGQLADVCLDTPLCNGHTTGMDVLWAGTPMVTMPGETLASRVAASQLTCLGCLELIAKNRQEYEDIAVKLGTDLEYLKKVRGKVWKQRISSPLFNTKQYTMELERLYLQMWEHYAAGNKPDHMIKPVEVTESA
Molecule	minimum log2 enrichment ratio
YMVDTHHKHHQHPVF	1.92
TAPTHHGHHYASDHH	2.42
HAGTIQPVYQISYVK	2.48
QNLEFFPKYQLVTR	2.06
HVSHTHPYQSQDHQH	2.05
QDHTHFFHVVTNHHH	3.44
QRVQHSHHYMHQIAE	3.34
NHAHYATDSHTHNHQ	2.3
QPYFLPKYVITVDNS	3.08

For quick reference, copied from above (block 2):
Change	phosphate dissociation constant [µM]
Y439V	599
W217G	175
P72G	361
E410V	769
